Experimental data collected from several papers.
Lines come from different studies, so protocols differ. ± marks the error that the study gave.

Structure (SMILES) = COc1ccc([C@@H](O)c2cc(-c3ncnc4cc(N5CCOCC5)ccc34)c(F)cc2Cl)nn1; system = human, plasma; conditions = oral, 250 mg twice daily, single dose, geometric mean; Cmax = 2340 ng/mL
Structure (SMILES) = C[C@@H](Cn1ccc(-c2ccc(C#N)c(Cl)c2)n1)NC(=O)c1cc([C@@H](C)O)[nH]n1; system = healthy male human, plasma; conditions = intravenous infusion, 100 µg 14C-labelled, 15 min infusion, microtracer, geometric mean; Cmax = 2180 pg eq/mL
Structure (SMILES) = CCCc1nn(C)c2c(=O)[nH]c(-c3cc(S(=O)(=O)N4CCN(C)CC4)ccc3OCC)nc12; system = humans, plasma; conditions = 100 mg, phase I DDI study, together with: placebo; Cmax = 340 ng/mL
Structure (SMILES) = Cc1nc(-c2ccc(OCC(C)C)c(C#N)c2)sc1C(=O)O; system = human; conditions = oral, 40 mg once daily, together with: verinurad 0 mg; Cmax = 1240 ng/mL
Structure (SMILES) = COc1ccc2nc([S@@+]([O-])Cc3ncc(CO)c(OC)c3C)[nH]c2c1; system = human, dried plasma spots; conditions = 5 mg racemic omeprazole, together with: rifampicin pretreatment; Cmax = 2.7 nM
Structure (SMILES) = Cc1cc(OCCOCCC(F)(F)P(=O)(O)O)ccc1CCc1cnc2c(N)nc3cc(CCC(=O)O)ccc3c2c1; system = human, serum; conditions = intratumoral, 400 µg every 2 weeks, cycle 1 day 1; Cmax = 3.49 ng/mL
Structure (SMILES) = Cc1cn(C(=O)c2c(-c3c(Cl)cc(Cl)cc3Cl)noc2C(C)(C)F)c2cccc(/C=C/C(=O)O)c12; system = human patients; conditions = 500 mg bid, cycle 8 day 1; Cmax = 30300 ng/mL
Structure (SMILES) = Cc1nc(Nc2ncc(C(=O)Nc3c(C)cccc3Cl)s2)cc(N2CCN(CCO)CC2)n1; system = human patients; conditions = oral, 65 mg/m^2, day 42, together with: vandetanib; Cmax = 106 ± 83 ng/mL
Structure (SMILES) = CC(C)NC(=O)COc1cccc(-c2nc(Nc3ccc4[nH]ncc4c3)c3ccccc3n2)c1; system = human male, plasma; conditions = oral, 200 mg once daily, day 13, fed, geometric mean, together with: rosuvastatin; Cmax = 2510 ng/mL
Structure (SMILES) = N#CCC1CCN(c2nc(Nc3ccc(N4CCC(O)CC4)cc3)c3c(=O)[nH]ncc3n2)CC1; system = human, plasma; conditions = oral, 20 mg once daily, day 1; Cmax = 67.8 ng/mL
Structure (SMILES) = C#C[C@]1(O)CC[C@H]2[C@@H]3CCC4=CC(=NO)CC[C@@H]4[C@H]3CC[C@@]21CC (mixture of isomers); system = human; conditions = dose not given, alone; Cmax = 1.77 ng/mL
Structure (SMILES) = CCn1cc(C(=O)N2CCOCC2)c(=O)c2cc(NC3Cc4ccccc4C3)cnc21; system = human, fed; conditions = oral suspension, 1200 mg single dose, arithmetic mean; Cmax = 2640 ng/mL
Structure (SMILES) = C[C@H]1CN(C(=O)CC#N)[C@]12CCN(c1ncnc3[nH]ccc13)C2; system = healthy human, plasma; conditions = oral, 3 mg single, day 1, geometric mean; Cmax = 18.4 ng/mL
Structure (SMILES) = C#C[C@]1(CO)O[C@@H](n2cnc3c(N)nc(F)nc32)C[C@@H]1O; system = human, plasma; conditions = oral, 30 mg, single dose, geometric mean; Cmax = 1050 nM
Structure (SMILES) = CC(C)(C)[C@@H]1NC(=O)O[C@@H]2CCC[C@H]2OC/C=C/C(F)(F)c2nc3ccccc3nc2O[C@@H]2C[C@@H](C(=O)N[C@]3(C(=O)NS(=O)(=O)C4(C)CC4)C[C@H]3C(F)F)N(C2)C1=O; system = healthy human subjects, plasma; conditions = oral, dose not given, together with: carbamazepine twice daily; Cmax = 354 ng/mL
Structure (SMILES) = NC[C@@]1(CC(=O)O)[C@@H]2CC[C@H]3C[C@@H]2[C@@H]1C3; system = human, normal renal function, plasma; conditions = oral, 20 mg single dose, geometric mean; Cmax = 360 ng/mL
Structure (SMILES) = C[C@@H](Oc1cc(-c2cnn(C3CCNCC3)c2)cnc1N)c1c(Cl)ccc(F)c1Cl; system = human patients, plasma; conditions = oral, dose not given, cycle 2 day 1, median, together with: avelumab; Cmax = 323 ng/mL
Structure (SMILES) = CC(C)CCC[C@@H](C)[C@H]1CC[C@H]2[C@@H]3C(O)CC4=CC(=O)CC[C@]4(C)[C@H]3CC[C@]12C (some centres unmarked); system = human, plasma; conditions = oral, dose not given; scale = relative to: untreated; Cmax = 118 ± 14 nM
Structure (SMILES) = C=CC(=O)N(C)CCOc1c(N)ncnc1-c1cc(F)cc(NC(=O)c2ccc(C3CC3)cc2F)c1C; system = human, whole blood; conditions = oral, 30 mg, single ascending dose, fasted; Cmax = 64.8 ng/mL
Structure (SMILES) = O=C(Nc1cnccc1Cl)N1CCN(Cc2ccc3c(c2)OC(F)(F)O3)CC1; system = human healthy young women, plasma; conditions = oral, 100 mg once daily, day 10, multiple dose mean; Cmax = 949 ng/mL

A few entries again:
Structure (SMILES) = N#CCC1CCN(c2nc(Nc3ccc(N4CCC(O)CC4)cc3)c3c(=O)[nH]ncc3n2)CC1; system = human, plasma; conditions = oral, 20 mg once daily, day 1; Cmax = 67.8 ng/mL
Structure (SMILES) = C#C[C@]1(O)CC[C@H]2[C@@H]3CCC4=CC(=NO)CC[C@@H]4[C@H]3CC[C@@]21CC (mixture of isomers); system = human; conditions = dose not given, alone; Cmax = 1.77 ng/mL
Structure (SMILES) = CCn1cc(C(=O)N2CCOCC2)c(=O)c2cc(NC3Cc4ccccc4C3)cnc21; system = human, fed; conditions = oral suspension, 1200 mg single dose, arithmetic mean; Cmax = 2640 ng/mL
